{"data": "Results collected from several papers", "note": "Protocols differ between the studies behind these lines. Several values in a cell are separate wells, animals, samples, runs or records. Numbers after ± are the reported error.", "sequence of UniProt P53341 (whole entry, looked up)": "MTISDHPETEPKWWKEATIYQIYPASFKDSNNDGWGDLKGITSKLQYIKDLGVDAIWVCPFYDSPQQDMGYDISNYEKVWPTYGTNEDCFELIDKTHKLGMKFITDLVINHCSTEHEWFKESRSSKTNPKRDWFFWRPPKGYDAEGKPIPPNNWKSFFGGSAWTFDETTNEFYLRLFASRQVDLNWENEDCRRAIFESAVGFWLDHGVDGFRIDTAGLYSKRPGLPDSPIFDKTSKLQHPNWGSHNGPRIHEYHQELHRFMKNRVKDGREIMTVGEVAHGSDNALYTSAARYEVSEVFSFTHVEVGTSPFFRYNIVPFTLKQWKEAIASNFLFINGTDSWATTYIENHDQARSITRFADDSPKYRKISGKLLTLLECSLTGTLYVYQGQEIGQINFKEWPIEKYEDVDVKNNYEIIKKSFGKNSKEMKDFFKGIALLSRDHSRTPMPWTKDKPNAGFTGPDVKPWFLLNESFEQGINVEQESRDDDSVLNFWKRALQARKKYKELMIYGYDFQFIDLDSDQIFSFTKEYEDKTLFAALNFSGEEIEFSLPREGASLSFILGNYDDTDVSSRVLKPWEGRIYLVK", "sequence of UniProt P08684 (whole entry, unmodified, looked up)": "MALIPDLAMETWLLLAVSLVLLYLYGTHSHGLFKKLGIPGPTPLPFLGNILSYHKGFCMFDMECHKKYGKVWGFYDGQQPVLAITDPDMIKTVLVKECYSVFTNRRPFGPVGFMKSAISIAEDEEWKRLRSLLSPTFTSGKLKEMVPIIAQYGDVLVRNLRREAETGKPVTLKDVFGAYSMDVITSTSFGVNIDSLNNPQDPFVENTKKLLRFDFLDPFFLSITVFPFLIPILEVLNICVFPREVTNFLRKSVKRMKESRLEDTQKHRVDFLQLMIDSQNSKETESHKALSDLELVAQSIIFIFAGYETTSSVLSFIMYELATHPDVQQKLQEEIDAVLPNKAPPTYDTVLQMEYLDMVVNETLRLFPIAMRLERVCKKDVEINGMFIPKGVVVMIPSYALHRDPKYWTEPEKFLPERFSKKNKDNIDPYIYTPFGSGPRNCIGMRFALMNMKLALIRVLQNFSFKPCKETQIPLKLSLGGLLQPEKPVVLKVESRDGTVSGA"}
{"Structure (SMILES)": "CC(=O)c1ccc(Cn2cc(COc3cc(-n4nc(C(C)(C)C)oc4=O)c(Cl)cc3Cl)nn2)cc1", "target or system": "Toxoplasma gondii", "test": "intracellular parasite growth, luminescence", "system": "HFF, wild type, NanoLuc reporter", "setting": "96 h", "measurement": "IC50", "result": "< 2.5 µM and 1.9 µM"}
{"Structure (SMILES)": "Cn1c(-c2ccc(C(N)=O)cc2F)nnc1C(C)(C)Oc1c(F)cc(Cl)cc1F", "system": "young Japanese subjects, plasma", "setting": "oral, 10 mg single dose, day 1", "measurement": "Cmax mean", "result": "0.0919 µg/mL"}
{"Structure (SMILES)": "CNCc1ccc(-c2[nH]c3cc(F)cc4c3c2CCNC4=O)cc1", "system": "human, plasma", "setting": "oral, 40 mg once daily, 24 h, steady state, mean", "measurement": "AUC(0-t)", "result": "1.05 µg·h/mL"}
{"Structure (SMILES)": "NC(=O)[C@H](CCCN=C(N)CCl)NC(=O)c1ccccc1", "target or system": "U-87 MG", "test": "caspase-3 flow cytometry", "setting": "150.40 µM, 48 h", "measurement": "viable cells", "result": "97.2 ± 0.85%"}
{"Structure (SMILES)": "CC(C)[C@H](NC(=O)[C@@H]1CCCN1C(=O)[C@H](CCCNC(=N)N)NC(=O)[C@H](CS)NC(=O)[C@H](Cc1c[nH]c2ccccc12)NC(=O)[C@H](CCCNC(=N)N)NC(=O)[C@@H](Cc1ccccc1)NC(=O)[C@H](Cc1c[nH]cn1)NC(=O)[C@H](CCC(=O)O)NC(=O)[C@H](CS)NC(=O)[C@H](CS)NC(=O)[C@H](CCCCN)NC(=O)[C@@H]1CC(=O)N[C@@H](CCCNC(=N)N)C(=O)N[C@@H](C)C(=O)N[C@@H](CC(=O)O)C(=O)N[C@H](Cc2ccc(O)cc2)C(=O)N1)C(N)=O [technetium-99m labelled]", "system": "C57 mice, intestines", "setting": "iv, 0.037 MBq, 0.5 h", "measurement": "tissue uptake", "result": "2.15 ± 0.25 %ID"}
{"Structure (SMILES)": "CCN(CC)CC#CCOC(=O)C(O)(c1ccccc1)C1CCCCC1 (centres unmarked)", "test": "cytochrome c release, ELISA", "system": "BALB/cByJ female mouse liver mitochondria", "setting": "30 min", "scale": "baseline: alamethicin maximal release", "measurement": "EC20", "result": "> 400 µM"}
{"Structure (SMILES)": "O=c1cc(-c2ccccc2)oc2cc(O)ccc12", "target or system": "MAL12 (Saccharomyces cerevisiae S288c, UniProt P53341)", "test": "enzyme activity, inhibitor, absorbance", "setting": "100 µM", "measurement": "inhibition", "result": "7.2%"}
{"Structure (SMILES)": "CC/C(=C(\\c1ccccc1)c1ccc(OCCN(C)C)cc1)c1ccccc1", "test": "mitochondrial swelling", "system": "BALB/cByJ female mouse liver mitochondria", "setting": "30 min, added: succinate + rotenone", "scale": "baseline: CaCl2 maximal swelling", "measurement": "EC20", "result": "9 µM"}
{"Structure (SMILES)": "CC(C)(C)c1nn(-c2cc(OCc3cn(Cc4ccccn4)nn3)c(Cl)cc2Cl)c(=O)o1", "target or system": "Toxoplasma gondii", "test": "intracellular parasite growth, luminescence", "system": "HFF, wild type, NanoLuc reporter", "setting": "96 h", "measurement": "IC50", "result": "13.5 ± 1.6 µM"}
{"Structure (SMILES)": "O=C1Cc2cc(-c3csc(NCCc4cccs4)n3)cc3c2N1CCC3", "target or system": "Leishmania donovani", "system": "intracellular amastigote", "measurement": "EC50", "result": "> 100 µM"}
{"Structure (SMILES)": "CN(C)Cc1cc(OCCC[18F])ccc1Sc1ccccc1N", "target or system": "SERT", "system": "male Sprague Dawley rat, control, hippocampus", "setting": "intravenous, 60 min", "measurement": "tissue uptake", "result": "0.45 ± 0.1 %ID/g"}
{"Structure (SMILES)": "CCCC[P+](CCCC)(CCCC)Cc1ccc(NC(=O)[C@H](Cc2ccc3ccccc3c2)NC(=NC2CCCCC2)NC2CCCCC2)cc1", "target or system": "Leishmania donovani", "system": "intracellular amastigote", "measurement": "EC50", "result": "31 ± 5 µM"}
{"Structure (SMILES)": "CC(=O)[C@H]1CC[C@H]2[C@@H]3CCC4=CC(=O)CC[C@]4(C)[C@H]3CC[C@]12C", "target or system": "Cytochrome P450 3A4 (CYP3A4, Homo sapiens, UniProt P08684, S18F)", "test": "substrate", "system": "nanodiscs with CPR", "setting": "three substrates bound", "measurement": "NADPH oxidation rate", "result": "108 nmol/nmol P450/min"}
{"Structure (SMILES)": "CCOC(=O)[N-]c1cn(N2CCOCC2)n[o+]1", "test": "cytochrome c release, ELISA", "system": "BALB/cByJ female mouse liver mitochondria", "setting": "30 min", "scale": "baseline: alamethicin maximal release", "measurement": "EC20", "result": "> 400 µM"}
{"note": "For quick reference, copied from above:"}
{"Structure (SMILES)": "CN(C)Cc1cc(OCCC[18F])ccc1Sc1ccccc1N", "target or system": "SERT", "system": "male Sprague Dawley rat, control, hippocampus", "setting": "intravenous, 60 min", "measurement": "tissue uptake", "result": "0.45 ± 0.1 %ID/g"}
